Results from different studies.
Every numbered part comes from another study and shows a few of its results, in no order.
Chain of UniProt Q9BZL6 (whole entry, looked up): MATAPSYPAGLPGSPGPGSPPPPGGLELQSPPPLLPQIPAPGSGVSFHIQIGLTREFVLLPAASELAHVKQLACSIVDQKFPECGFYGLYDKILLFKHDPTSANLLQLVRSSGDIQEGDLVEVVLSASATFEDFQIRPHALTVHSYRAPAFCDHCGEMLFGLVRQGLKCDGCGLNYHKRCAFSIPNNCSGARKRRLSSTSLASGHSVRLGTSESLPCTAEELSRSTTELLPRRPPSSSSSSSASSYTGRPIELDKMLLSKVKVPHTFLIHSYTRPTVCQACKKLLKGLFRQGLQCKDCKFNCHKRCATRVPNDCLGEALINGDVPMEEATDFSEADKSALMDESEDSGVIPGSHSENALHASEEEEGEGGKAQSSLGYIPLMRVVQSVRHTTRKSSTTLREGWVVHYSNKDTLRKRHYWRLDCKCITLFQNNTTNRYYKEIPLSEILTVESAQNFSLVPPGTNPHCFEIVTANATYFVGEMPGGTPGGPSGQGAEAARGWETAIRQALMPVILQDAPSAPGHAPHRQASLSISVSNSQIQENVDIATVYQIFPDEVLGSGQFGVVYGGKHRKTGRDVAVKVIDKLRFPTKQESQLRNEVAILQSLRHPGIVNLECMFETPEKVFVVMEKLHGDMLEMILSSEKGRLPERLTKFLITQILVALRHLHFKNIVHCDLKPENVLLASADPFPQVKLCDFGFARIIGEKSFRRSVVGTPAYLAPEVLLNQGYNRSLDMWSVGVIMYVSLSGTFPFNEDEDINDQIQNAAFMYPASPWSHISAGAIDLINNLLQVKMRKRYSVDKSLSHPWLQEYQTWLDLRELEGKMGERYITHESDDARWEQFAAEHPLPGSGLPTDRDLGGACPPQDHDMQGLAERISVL
Chain of UniProt Q13464 (whole entry, looked up): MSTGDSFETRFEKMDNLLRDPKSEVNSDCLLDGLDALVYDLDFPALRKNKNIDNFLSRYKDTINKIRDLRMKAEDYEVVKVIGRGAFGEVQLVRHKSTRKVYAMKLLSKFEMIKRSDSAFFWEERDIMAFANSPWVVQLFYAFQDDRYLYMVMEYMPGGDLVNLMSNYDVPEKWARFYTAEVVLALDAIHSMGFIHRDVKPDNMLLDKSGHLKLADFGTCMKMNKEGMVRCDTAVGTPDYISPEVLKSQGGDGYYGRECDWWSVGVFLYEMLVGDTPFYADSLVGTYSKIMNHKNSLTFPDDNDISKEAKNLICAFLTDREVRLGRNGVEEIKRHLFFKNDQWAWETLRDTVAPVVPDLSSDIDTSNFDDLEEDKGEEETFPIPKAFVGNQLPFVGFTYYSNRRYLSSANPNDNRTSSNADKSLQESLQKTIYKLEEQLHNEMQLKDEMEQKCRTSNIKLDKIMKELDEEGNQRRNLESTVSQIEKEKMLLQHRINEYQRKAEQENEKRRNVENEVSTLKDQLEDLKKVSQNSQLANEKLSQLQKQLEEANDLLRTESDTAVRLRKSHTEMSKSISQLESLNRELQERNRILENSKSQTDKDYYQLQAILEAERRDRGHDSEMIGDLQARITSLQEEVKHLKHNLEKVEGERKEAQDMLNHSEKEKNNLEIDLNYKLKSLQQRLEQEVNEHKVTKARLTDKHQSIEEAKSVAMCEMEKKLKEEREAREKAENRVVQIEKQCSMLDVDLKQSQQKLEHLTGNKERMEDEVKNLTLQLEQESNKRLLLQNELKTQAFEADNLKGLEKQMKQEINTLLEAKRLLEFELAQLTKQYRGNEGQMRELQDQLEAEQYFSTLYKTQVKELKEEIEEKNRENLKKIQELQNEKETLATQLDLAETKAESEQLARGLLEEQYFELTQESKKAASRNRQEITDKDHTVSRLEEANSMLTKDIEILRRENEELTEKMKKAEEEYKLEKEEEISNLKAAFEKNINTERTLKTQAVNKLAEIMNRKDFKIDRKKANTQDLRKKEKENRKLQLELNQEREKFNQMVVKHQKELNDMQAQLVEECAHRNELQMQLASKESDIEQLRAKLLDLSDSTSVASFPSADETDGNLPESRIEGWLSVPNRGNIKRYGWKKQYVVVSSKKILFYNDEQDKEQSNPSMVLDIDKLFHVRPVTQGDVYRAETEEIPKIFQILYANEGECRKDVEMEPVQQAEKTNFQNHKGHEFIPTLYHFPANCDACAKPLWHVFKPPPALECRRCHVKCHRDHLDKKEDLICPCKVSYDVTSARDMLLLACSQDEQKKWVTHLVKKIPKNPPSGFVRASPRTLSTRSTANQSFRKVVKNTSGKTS
Chain of UniProt P36894 (whole entry, looked up): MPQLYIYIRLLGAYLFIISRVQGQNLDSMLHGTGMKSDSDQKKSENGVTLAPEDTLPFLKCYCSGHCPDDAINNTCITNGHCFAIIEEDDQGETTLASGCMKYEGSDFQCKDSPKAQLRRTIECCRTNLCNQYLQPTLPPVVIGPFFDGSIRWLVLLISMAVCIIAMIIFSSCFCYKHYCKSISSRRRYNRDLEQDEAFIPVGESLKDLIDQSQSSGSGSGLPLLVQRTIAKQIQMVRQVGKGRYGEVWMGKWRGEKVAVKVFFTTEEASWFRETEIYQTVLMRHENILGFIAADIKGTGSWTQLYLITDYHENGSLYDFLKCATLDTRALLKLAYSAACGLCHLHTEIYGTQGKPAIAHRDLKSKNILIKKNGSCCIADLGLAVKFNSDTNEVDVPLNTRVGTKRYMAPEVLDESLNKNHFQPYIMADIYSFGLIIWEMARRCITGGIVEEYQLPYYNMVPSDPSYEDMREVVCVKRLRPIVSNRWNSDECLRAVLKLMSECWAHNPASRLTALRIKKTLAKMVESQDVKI
Chain of UniProt P00519 (whole entry, looked up): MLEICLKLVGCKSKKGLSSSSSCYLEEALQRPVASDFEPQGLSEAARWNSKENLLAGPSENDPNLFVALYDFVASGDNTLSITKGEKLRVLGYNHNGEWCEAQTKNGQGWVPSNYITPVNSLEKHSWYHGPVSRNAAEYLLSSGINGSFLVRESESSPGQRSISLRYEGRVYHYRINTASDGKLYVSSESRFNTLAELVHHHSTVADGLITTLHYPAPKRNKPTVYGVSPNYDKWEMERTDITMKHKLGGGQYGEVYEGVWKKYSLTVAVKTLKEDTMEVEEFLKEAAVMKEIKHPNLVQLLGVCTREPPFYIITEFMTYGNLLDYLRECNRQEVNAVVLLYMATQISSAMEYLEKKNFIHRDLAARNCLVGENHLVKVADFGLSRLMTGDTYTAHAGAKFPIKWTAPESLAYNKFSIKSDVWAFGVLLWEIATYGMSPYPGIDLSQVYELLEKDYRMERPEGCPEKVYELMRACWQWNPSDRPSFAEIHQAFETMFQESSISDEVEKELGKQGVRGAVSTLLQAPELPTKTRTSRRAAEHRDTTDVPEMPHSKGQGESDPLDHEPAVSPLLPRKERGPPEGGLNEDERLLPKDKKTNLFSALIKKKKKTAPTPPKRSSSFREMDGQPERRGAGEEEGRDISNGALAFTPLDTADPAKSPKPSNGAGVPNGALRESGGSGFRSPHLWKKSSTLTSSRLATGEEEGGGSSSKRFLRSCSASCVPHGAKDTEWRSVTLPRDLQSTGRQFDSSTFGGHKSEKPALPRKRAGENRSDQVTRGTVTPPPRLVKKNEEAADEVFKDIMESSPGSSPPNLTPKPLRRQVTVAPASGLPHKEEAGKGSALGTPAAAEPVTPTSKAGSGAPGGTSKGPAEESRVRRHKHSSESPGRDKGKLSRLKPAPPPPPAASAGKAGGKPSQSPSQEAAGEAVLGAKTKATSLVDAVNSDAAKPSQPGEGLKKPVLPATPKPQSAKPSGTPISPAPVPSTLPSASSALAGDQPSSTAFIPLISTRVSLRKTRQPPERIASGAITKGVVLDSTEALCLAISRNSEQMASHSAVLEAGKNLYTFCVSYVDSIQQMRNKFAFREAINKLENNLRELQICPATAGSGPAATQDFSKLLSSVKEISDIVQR
Chain of UniProt P20794 (whole entry, looked up): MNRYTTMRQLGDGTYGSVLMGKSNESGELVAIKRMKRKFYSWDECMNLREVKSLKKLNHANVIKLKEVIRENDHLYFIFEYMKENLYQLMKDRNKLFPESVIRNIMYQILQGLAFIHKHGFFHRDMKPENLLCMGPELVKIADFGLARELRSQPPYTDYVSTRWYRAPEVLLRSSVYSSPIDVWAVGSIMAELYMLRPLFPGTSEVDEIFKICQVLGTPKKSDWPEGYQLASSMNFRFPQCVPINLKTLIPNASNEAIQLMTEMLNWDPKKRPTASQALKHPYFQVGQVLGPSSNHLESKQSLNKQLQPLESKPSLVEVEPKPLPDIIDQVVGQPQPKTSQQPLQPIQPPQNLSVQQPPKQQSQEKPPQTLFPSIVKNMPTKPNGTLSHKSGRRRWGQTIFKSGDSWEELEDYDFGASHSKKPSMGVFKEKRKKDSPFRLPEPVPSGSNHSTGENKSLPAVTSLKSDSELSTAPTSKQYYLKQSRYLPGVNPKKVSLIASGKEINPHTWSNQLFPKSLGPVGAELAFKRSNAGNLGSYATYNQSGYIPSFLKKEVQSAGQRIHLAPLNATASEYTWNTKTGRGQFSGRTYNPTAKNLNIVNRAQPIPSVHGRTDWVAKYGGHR

Sample 1
Target: PABPC1L2, full length, GST fusion (mouse, UniProt A0ABA7IW68)
Method: RNAcompete
Form: RNA
Medium: in vitro
Concentration: 20 nM
Setting: 7-mer, probes averaged, single round
Relative to: mean of 7-mers
Direction: higher = stronger binding
Construct (chain): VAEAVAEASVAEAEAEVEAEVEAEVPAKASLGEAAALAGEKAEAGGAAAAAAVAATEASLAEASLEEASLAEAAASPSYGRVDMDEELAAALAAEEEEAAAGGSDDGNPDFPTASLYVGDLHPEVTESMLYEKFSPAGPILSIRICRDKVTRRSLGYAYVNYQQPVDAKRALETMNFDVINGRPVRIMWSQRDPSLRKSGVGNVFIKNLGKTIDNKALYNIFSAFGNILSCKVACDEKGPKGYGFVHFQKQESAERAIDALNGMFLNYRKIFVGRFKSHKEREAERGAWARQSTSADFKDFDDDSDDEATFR
Sequence	7-mer Z-score
UUAUCAC	-0.157
AGGACGU	0.0678
UUCGUAG	-0.382
GCACGCG	-0.103
CUAAGUU	-0.335
UUUCGCA	-0.389
AGAGGAU	-0.0554
UUGUUAA	-0.124

Sample 2
Target: G protein-coupled receptor kinase 6 (GRK6, Homo sapiens, UniProt P43250)
Chain of UniProt P43250 (whole entry, looked up): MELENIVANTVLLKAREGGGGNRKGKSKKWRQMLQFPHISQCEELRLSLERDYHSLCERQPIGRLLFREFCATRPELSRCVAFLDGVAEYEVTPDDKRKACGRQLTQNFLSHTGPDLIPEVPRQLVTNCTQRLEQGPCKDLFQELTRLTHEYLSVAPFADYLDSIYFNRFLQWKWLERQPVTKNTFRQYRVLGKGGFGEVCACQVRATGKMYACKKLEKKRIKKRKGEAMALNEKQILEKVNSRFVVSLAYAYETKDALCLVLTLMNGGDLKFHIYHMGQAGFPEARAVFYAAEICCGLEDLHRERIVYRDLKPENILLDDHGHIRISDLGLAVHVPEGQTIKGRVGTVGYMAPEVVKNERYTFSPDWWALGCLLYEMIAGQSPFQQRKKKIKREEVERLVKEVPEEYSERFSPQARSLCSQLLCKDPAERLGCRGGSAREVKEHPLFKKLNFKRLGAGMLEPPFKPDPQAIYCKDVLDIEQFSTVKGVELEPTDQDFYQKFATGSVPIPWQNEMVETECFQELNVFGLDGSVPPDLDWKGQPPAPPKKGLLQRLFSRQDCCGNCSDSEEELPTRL
Effect on: enzyme activity
Action: inhibitor
Concentration: 0.5 µM
Relative to: control
Structure (SMILES)	remaining activity [%]
O=C(CCCc1ccc(-c2ccccc2F)cc1)Nc1ccc(O)cc1	104
C#Cc1cccc(Nc2ncnc3cc(OCCOC)c(OCCOC)cc23)c1	99.2
COc1cc2ncnc(Nc3ccc(Oc4ccccc4)cc3)c2cc1OC	99.6
O=c1c2ccccc2[nH]c(=S)n1CCN1CCC(=C(c2ccc(F)cc2)c2ccc(F)cc2)CC1	111
Cc1nc(-c2ccccc2)c(-c2ccncc2)o1	105
COc1ccc(OC)c2c(=S)c3ccccc3[nH]c12	97.2
Cn1sc(=O)n(Cc2ccccc2)c1=O	104
CN(C)c1ccc(C=C2C(=O)Nc3ccccc32)cc1	102
Cc1ccc(Nc2nccc(N(C)c3ccc4c(C)n(C)nc4c3)n2)cc1S(N)(=O)=O	102
OCC(O)CCON=C1C(c2c(O)[nH]c3ccccc23)=Nc2ccccc21 (centres unmarked)	53.1
Nc1ncnc2n[nH]c(Nc3ccc(F)cc3)c12	103
O=C1NC(=O)C(c2cn(CCCO)c3ncccc23)=C1c1cnccn1	102
Cc1cccc(-c2[nH]c(C(C)(C)C)nc2-c2ccc3c(c2)OCO3)n1	101
O=C1NC(=O)C(c2cn(CCCn3ccnc3)c3ccccc23)=C1Nc1ccccc1	98.4
O=S(=O)(c1cccc2cnccc12)N1CCCNCC1	95.4
CNC(=O)c1cc(Oc2ccc(NC(=O)Nc3ccc(Cl)c(C(F)(F)F)c3)cc2)ccn1	107

Sample 3
SMILES: O=C(N[C@H]1CCCCC/C=C\C2C[C@@]2(C(=O)O)NC(=O)[C@@H]2C[C@@H](Oc3ccncc3)CN2C1=O)OC1CCCC1 (some centres unmarked)
Method: competition with immobilised ligand
Concentration: 1 µM
target	test	remaining binding [%]
FYN (Homo sapiens, UniProt P06241)	binding	100
NUAK2 (Homo sapiens, UniProt Q9H093)	binding	100
CSF1R (Homo sapiens, UniProt P07333)	cell-free assay	95
IRAK3 (Homo sapiens, UniProt Q9Y616)	binding	72
PRKACB (Homo sapiens, UniProt P22694)	binding	100
MAPK15 (Homo sapiens, UniProt Q8TD08)	binding	100
PRKD2 (Homo sapiens, UniProt Q9BZL6)	binding	100
Tyrosine-protein kinase ABL1, non-phosphorylated (ABL1, Homo sapiens, UniProt P00519)	binding	85
STK17B (Homo sapiens, UniProt O94768)	cell-free assay	69
ROCK1 (Homo sapiens, UniProt Q13464)	binding	100
MAK (Homo sapiens, UniProt P20794)	binding	82
BMPR1A (Homo sapiens, UniProt P36894)	binding	100

Sample 4
Target: RNA binding protein fox-1 homolog 2, RRM domain, GST-SBP tag (RBFOX2, Homo sapiens, UniProt O43251-10, residues 100-194)
Method: RNA Bind-n-Seq
Form: RNA
Medium: in vitro
Concentration: 365 nM
Setting: natural RNA segment, single round, ends assumed
Relative to: no-protein control
Direction: higher = stronger binding
Shared flanks, not repeated: GGGAGUUCUACAGUCCGACGAUC … UGGAAUUCUCGGGUGCCAA
Residues (chain): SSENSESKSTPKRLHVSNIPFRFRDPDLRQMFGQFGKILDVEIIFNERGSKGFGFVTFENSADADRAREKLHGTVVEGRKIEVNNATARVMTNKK
Sequence	RBNS enrichment (R)
ACAUUCACAGGUGCACGCAUAUAUGUGUGUCGCCCCCACCCCCGCCAUGGCAUUUCAUGAUAUGUGAUUAGGAGCUCGUGUGCACCCUCAUAUCCAUUCCAUGAGAAGGU	0.551
UUGACCAAGAAGAAAUGGAGUCUGAGCACCUGGUUUCUGUUCUGUCUAUCUCACUUCACUGUGAGGGGAAGACCUUCUCAUGGGAACUCUCCAAAUACCAUUCAAGUGCC	0.299
UUCCCAAAAUGAGAGGCACCAACUUCAAGAAUUGCCUCCUAGGGGGAGGCACGAGCCAGAGACCAGGACCUGCAGGUCCUUUGCUGCUGGGAACUCUCCCAUUUUCAGGU	0.581
AGCGAGCAUGGAGUGCCUCAGCUGACCCUGUUCCCGUUCCCUUGCCCCUGCCUCUUCCCUAGUGUCAGCCUACUCCAGGCUCCCAGCUGCCUUGAGAGGCCGCGGACAAA	0.643
UACUACAUCGCCCUCCACAUCCCUGAUUCCUGUUGUUAUGGAAACUGUUGCCAGAGAUGGAGGUUCUCUCGGAGUAUCUGGGAACUGUGCCUUUGAGUUUCCUCAGGCUG	0.411
CUAAUUAGCUAUAUAGGCCCAGCGAUGCUUCUUAUUGAUCUUAAUAGUAUGCCCCUCCUUCCCCUGUCCUUUCAUUUCUCUAUCCAAGUAGCAGUCAGGUUCUUGGUGUG	1.2
UGGGACGUAUACAUUCUCCAUUCUUUUUGACAUUAUUUUGGCUAAUCUGGGUCCUCUGCAUUUCUGUAUAACUUACAAGGUCUGGUUGUCAGUUUUUGCAAAAAGGCCUG	0.844
AAGCCUCUUGGUGCACAAUAAACUAUUGCUGAAUCUUUGAACAGCUGGAAAGUAGUCUUGAGAGGCAGAAGCCGAAGGUUCGAGAGCCAGUGUUUAAUGUGCAGGAUCUA	0.334

For quick reference, copied from above (sample 4):
Sequence	RBNS enrichment (R)
UACUACAUCGCCCUCCACAUCCCUGAUUCCUGUUGUUAUGGAAACUGUUGCCAGAGAUGGAGGUUCUCUCGGAGUAUCUGGGAACUGUGCCUUUGAGUUUCCUCAGGCUG	0.411
AAGCCUCUUGGUGCACAAUAAACUAUUGCUGAAUCUUUGAACAGCUGGAAAGUAGUCUUGAGAGGCAGAAGCCGAAGGUUCGAGAGCCAGUGUUUAAUGUGCAGGAUCUA	0.334
UGGGACGUAUACAUUCUCCAUUCUUUUUGACAUUAUUUUGGCUAAUCUGGGUCCUCUGCAUUUCUGUAUAACUUACAAGGUCUGGUUGUCAGUUUUUGCAAAAAGGCCUG	0.844
